# Measurements collected from several papers.
# Lines come from different studies, so protocols differ. ± gives the spread as reported.
# HLA class I histocompatibility antigen, A alpha chain: HLA class I histocompatibility antigen, A alpha chain (Homo sapiens, UniProt P04439)
# Epithelial sodium channel subunit beta: Epithelial sodium channel subunit beta (Homo sapiens, UniProt P51168)
# gag-pol K653N reverse transcriptase: Gag-Pol polyprotein, reverse transcriptase (gag-pol, Human immunodeficiency virus type 1 group M subtype B, UniProt P04585, K653N)
Substance,target,test,test system,conditions,scale,endpoint,value
NC(=O)C[C@H](NC(=O)Cc1ccc(O)cc1O)C(=O)NCCCCCNCCCNCCCNC(=O)[C@@H](N)CCCN=C(N)N,"Glutamate NMDA receptor; Grin1/Grin2a (Grin1/Grin2a, Rattus norvegicus, UniProt P35439+Q00959)","ion current, open-channel blocker, whole-cell patch clamp",HEK293 cells,,,deactivation time constant,no effect
RASVLSGGK,"HLA class I histocompatibility antigen, A alpha chain","peptide binding, iTopia affinity",peptide,,,ED50,17.4 µM
C[C@@H](O)[C@H](NC(=O)[C@H](Cc1ccccc1)NC(=O)[C@H](Cc1ccccc1)NC(=O)[C@H](CC(=O)O)NC(=O)[C@H](CC(=O)O)NC(=O)[C@H](Cc1c[nH]c2ccccc12)NC(=O)[C@H](CO)NC(=O)[C@@H](N)CCCCN)C(=O)N[C@@H](CCCNC(=N)N)C(=O)O,Epithelial sodium channel subunit beta,"binding, bio-layer interferometry",,,,koff,0.00441 s⁻¹
Nc1nc2c(ncn2[C@H]2C[C@H](O)[C@@H](COP(=O)(O)OP(=O)(O)OP(=O)(O)O)O2)c(=O)[nH]1,gag-pol K653N reverse transcriptase,"nucleotide misinsertion, steady-state kinetics",,"K66N mutant RT, together with: opposite template T",,Km,4.31 ± 1.95 µM
[Ni+2],"uncharacterized protein (Bacteroides thetaiotaomicron, UniProt Q8A4G9)","phosphatase activity, activator, phosphate release",,"5 mM, EDTA-treated enzyme, together with: substrate 25 mM",relative to: activity with Mg2+,relative specific activity,0.0042
LARNCRAPR,"HLA class I histocompatibility antigen, A alpha chain",iTopia binding,peptide,"11 µM, 18 h, 21 °C",relative to: positive control,peptide binding,62.5%
CC(C)C[C@H](NC(=O)[C@@H]1CCCN1C(=O)[C@H](CCCNC(=N)N)NC(=O)[C@H](CC(C)C)NC(=O)[C@H](CCCNC(=N)N)NC(=O)[C@H](CC(=O)O)NC(=O)[C@H](Cc1ccc(O)cc1)NC(=O)[C@H](CC(=O)O)NC(=O)[C@H](CCC(=O)O)NC(=O)[C@H](CCC(N)=O)NC(=O)CN)C(=O)O,Epithelial sodium channel subunit beta,"binding, bio-layer interferometry",,,,kon,91.9 M⁻¹ s⁻¹
Nc1ccn([C@H]2C[C@H](O)[C@@H](COP(=O)(O)OP(=O)(O)OP(=O)(O)O)O2)c(=O)n1,gag-pol K653N reverse transcriptase,"nucleotide misinsertion, steady-state kinetics",,"K66N mutant RT, together with: opposite template T",,Km,1530 ± 1090 µM
CCN(CC)c1nc(C)cc(OP(=S)(OC)OC)n1,"uncharacterized protein (Anopheles coluzzii, UniProt A0A6E8VQK1)","enzyme activity, inhibitor",Sf9 cell homogenate,"0.0004587 µM, 0.1667 h, together with: α-naphthyl acetate substrate",relative to: no inhibitor,remaining activity,102%
AKNCRAPRK,"HLA class I histocompatibility antigen, A alpha chain","peptide binding, iTopia affinity",peptide,,,ED50,20.3 µM
N#CC(C#N)=NNc1cccc(Cl)c1,"ATP synthase subunit c, whole ATP synthase complex (atpE, Pseudomonas aeruginosa, UniProt Q9HT15)","ATP synthesis, luciferin-luciferase","Pseudomonas aeruginosa, inverted membrane vesicles",200 µM,relative to: no inhibitor,luminescence from non-ATP synthase sources,29 ± 5%
Cc1cn([C@H]2C[C@H](O)[C@@H](COP(=O)(O)OP(=O)(O)OP(=O)(O)O)O2)c(=O)[nH]c1=O,"Gag-Pol polyprotein, reverse transcriptase (gag-pol, Human immunodeficiency virus type 1 group M subtype B, UniProt P04585, K653T)","nucleotide misinsertion, steady-state kinetics",,"K66T mutant RT, together with: opposite template T",,Km,1620 ± 704 µM
ARNCRAPRK,"HLA class I histocompatibility antigen, A alpha chain","peptide binding, iTopia affinity",peptide,,,ED50,31.8 µM
CC[C@H](C)[C@H](NC(=O)[C@H](CC(C)C)NC(=O)[C@@H](NC(=O)[C@@H](NC(=O)[C@H](CC(C)C)NC(=O)[C@H](CC(=O)O)NC(=O)[C@H](CC(C)C)NC(=O)[C@H](Cc1ccccc1)NC(=O)[C@H](Cc1c[nH]c2ccccc12)NC(=O)[C@@H](NC(=O)[C@H](CC(C)C)NC(=O)[C@H](Cc1ccccc1)NC(=O)[C@H](Cc1ccc(O)cc1)NC(=O)[C@H](Cc1c[nH]c2ccccc12)NC(=O)[C@H](CC(C)C)NC(=O)[C@H](CCCCN)NC(=O)[C@H](Cc1c[nH]c2ccccc12)NC(=O)[C@H](Cc1c[nH]c2ccccc12)NC(=O)[C@H](CCCCN)NC(=O)[C@H](CCCCN)NC(=O)[C@H](CCCCN)NC(=O)[C@H](CCCCN)NC(=O)CNC(=O)CCCCCNC(=S)Nc1ccc2c(c1)C(=O)OC21c2ccc(O)cc2Oc2cc(O)ccc21)C(C)C)[C@@H](C)CC)[C@@H](C)CC)C(=O)N[C@@H](CC(C)C)C(=O)N[C@@H](CC(C)C)C(=O)N[C@@H](CC(C)C)C(=O)N[C@@H](Cc1c[nH]c2ccccc12)C(=O)N[C@@H](Cc1c[nH]c2ccccc12)C(=O)N[C@@H](CCCCN)C(=O)N[C@@H](CCCCN)C(=O)N[C@@H](CCCCN)C(=O)N[C@@H](CCCCN)C(=O)O,"Latent membrane protein 1, transmembrane domain 5 (Human herpesvirus 4, UniProt P03230)",FRET,C14 betaine micelles,"concentration not given, pH 7.4, together with: coumarin-labelled TMD5 50 nM",,binding stoichiometry,0.53 ± 0.02
Cc1cn([C@H]2C=C[C@@H](COP(=O)(O)OP(=O)(O)OP(=O)(O)O)O2)c(=O)[nH]c1=O,"Gag-Pol polyprotein, reverse transcriptase (gag-pol, Human immunodeficiency virus type 1 group M subtype B, UniProt P04585, K652R)","reverse transcriptase activity, inhibitor",HIV-1,,relative to: K65R mutant over wild type,fold resistance,3 fold
NC(=O)c1c(N)sc2c1CCCCC2,"Gag-Pol polyprotein, RT with RNA/DNA hybrid (gag-pol, Human immunodeficiency virus 1, UniProt P03366, E1077Q)","substrate binding, electrophoretic mobility shift",,50 µM,,RNA/DNA substrate affinity,no effect
N[C@@H](C[C@]1(C(=O)O)C[C@H]2OC[C@@H](O)[C@@H](O)[C@H]2O1)C(=O)O,"Grik2 (Rattus norvegicus, UniProt P42260, A518T)",[3H]kainate displacement,,,relative to: wild-type GluK2,affinity decrease,~7 fold
CC[C@H](C)[C@H](NC(=O)[C@H]1CCC[C@@H]1NC(=O)[C@H](CC(=O)O)NC(=O)[C@H](CC(C)C)NC(=O)[C@H](CCCCN)NC(=O)[C@H]1CCC[C@@H]1NC(=O)[C@H](CC(N)=O)NC(=O)[C@H](CO)NC(=O)[C@H]1CNC[C@@H]1NC(=O)[C@H](CCCNC(=N)N)NC(=O)[C@@H](NC(=O)[C@H](Cc1c[nH]c2ccccc12)NC(=O)C[C@H](CCC(=O)O)NC(=O)[C@H](CCCCN)NC(=O)[C@H](CO)NC(=O)C[C@H](CCC(=O)O)NC(=O)[C@H](CCC(=O)O)NC(=O)[C@H](CC(C)C)NC(=O)[C@H](CC(=O)O)NC(=O)[C@H]1CCC[C@@H]1NC(=O)[C@H](CCCCN)NC(=O)[C@@H](NC(=O)[C@H]1CNC[C@@H]1NC(=O)[C@H](CC(N)=O)NC(=O)[C@H](CC(C)C)NC(=O)[C@@H](NC(=O)[C@H]1CCC[C@@H]1NC(=O)[C@H](CO)NC(=O)[C@@H](NC(=O)[C@H](CC(=O)O)NC(=O)[C@@H](NC(=O)[C@@H]1CCCN1C(=O)[C@H](CC(=O)O)NC(=O)[C@H](CC(C)C)NC(=O)[C@H](C)NC(=O)[C@@H](NC(C)=O)C(C)C)[C@@H](C)CC)[C@@H](C)CC)C(C)C)[C@@H](C)CC)[C@@H](C)CC)C(N)=O,"Fusion glycoprotein F0, HRN domain (F, Human parainfluenza 3 virus, UniProt P06828)","co-assembly, HPIV3 HRN, with, variable-temperature CD",PBS,"50 µM, 1:1 mixture",,melting temperature,67 °C
RASILSGGK,"HLA class I histocompatibility antigen, A alpha chain",iTopia binding,peptide,"11 µM, 18 h, 21 °C",relative to: positive control,peptide binding,87.6%
Cc1cn([C@H]2C[C@H](O)[C@@H](COP(=O)(O)OP(=O)(O)OP(=O)(O)O)O2)c(=O)[nH]c1=O,"Gag-Pol polyprotein, reverse transcriptase p66 homodimer (gag-pol, Human immunodeficiency virus type 1 group M subtype B, UniProt P04585)",substrate,,,,Km,0.29 ± 0.07 µM
Cc1c(N2CC[C@@H](CN)C2)c(F)cc2c(=O)n(CCNC(=N)N)c(=O)n(C3CC3)c12,"DNA gyrase (gyrA/gyrB, Escherichia coli, UniProt P0AES4+P0AES6)","DNA cleavage, poison",,,,concentration giving linear DNA,25 to 50 µM
CC[C@H](C)[C@H](NC(=O)[C@H](CO)NC(=O)[C@H](Cc1ccc(O)cc1)NC(=O)[C@H](CC(=O)O)NC(=O)[C@H](CO)NC(=O)[C@@H](NC(=O)[C@H](Cc1ccccc1)NC(=O)[C@@H](NC(=O)CNC(=O)[C@H](CCC(=O)O)NC(=O)CCNC(=O)C1(c2ccc(Cl)cc2)CCOCC1)[C@@H](C)O)[C@@H](C)CC)C(=O)N[C@@H](C)C(=O)N[C@@H](CCSC)C(=O)N[C@@H](CC(=O)O)C(=O)N[C@@H](CCCCN)C(=O)N[C@H](C(=O)N[C@@H](Cc1c[nH]cn1)C(=O)N[C@@H](CCC(N)=O)C(=O)N[C@@H](CCC(N)=O)C(=O)N[C@@H](CC(=O)O)C(=O)N[C@@H](Cc1ccccc1)C(=O)N[C@H](C(=O)N[C@@H](CC(N)=O)C(=O)N[C@@H](Cc1c[nH]c2ccccc12)C(=O)N[C@@H](CC(C)C)C(=O)N[C@@H](CC(C)C)C(=O)N[C@@H](C)C(=O)N[C@@H](CCC(N)=O)C(=O)NCC(=O)N1CCC[C@H]1C(=O)N[C@@H](CO)C(=O)N[C@@H](CO)C(=O)NCC(=O)N[C@@H](C)C(=O)N1CCC[C@H]1C(=O)N1CCC[C@H]1C(=O)N1CCC[C@H]1C(=O)N[C@@H](CO)C(=O)N[C@@H](CCCCN)C(N)=O)C(C)C)[C@@H](C)CC,"Glucagon-like peptide 1 receptor (Mus musculus, UniProt O35659)","cAMP, agonist",,,,Emax,51%
Nc1ncnc2c1ncn2[C@H]1C[C@H](O)[C@@H](COP(=O)(O)OP(=O)(O)OP(=O)(O)O)O1,gag-pol K653N reverse transcriptase,substrate,,"K66N mutant, together with: matched T:A primer template",,kcat,0.105 ± 0.014 s⁻¹
CC(C)C[C@H](NC(=O)[C@H](Cc1ccccc1)NC(=O)[C@@H]1CCCN1C(=O)[C@H](CCCNC(=N)N)NC(=O)[C@H](CCC(=O)O)NC(=O)[C@@H]1CCCN1C(=O)[C@H](CO)NC(=O)[C@@H](N)CCC(=O)O)C(=O)O,Epithelial sodium channel subunit beta,"binding, bio-layer interferometry",,,,koff,0.0165 s⁻¹
CCOC(=O)CC(SP(=S)(OC)OC)C(=O)OCC (stereo not drawn),"uncharacterized protein (Anopheles coluzzii, UniProt A0A6E8VQK1)","enzyme activity, inhibitor",Sf9 cell homogenate,"4.545 µM, 0.1667 h, together with: α-naphthyl acetate substrate",relative to: no inhibitor,remaining activity,105%
KNCRAPRKK,"HLA class I histocompatibility antigen, A alpha chain","peptide-MHC complex stability, iTopia off-rate",peptide,,,dissociation half-life,17.4 min
COc1cc2c3cc1Oc1cc(ccc1O)C[C@@H]1c4c(cc(OC)c(O)c4Oc4ccc(cc4)C[C@@H]3N(C)CC2)CC[N+]1(C)C,"Chrnd/Chrna1/Chrne (Mus musculus, UniProt P02716+P04756+P20782)",,mouse diaphragm,"0.1 µM, AChE inhibited",relative to: control,response amplitude,72%
